Assay results collected from several papers.
Numbered parts are unrelated; each lists some results of a single study.

Set 1
Target: RNA binding protein fox-1 homolog 2, RRM domain, GST-SBP tag (RBFOX2, Homo sapiens, UniProt O43251-10, residues 100-194)
Method: RNA Bind-n-Seq
Molecule type: RNA
Sample: in vitro
Concentration: 365 nM
Notes: natural RNA segment, single round, ends assumed
Relative to: no-protein control
Direction: higher = stronger binding
Shared flanks, not repeated: GGGAGUUCUACAGUCCGACGAUC … UGGAAUUCUCGGGUGCCAA
Target sequence (chain): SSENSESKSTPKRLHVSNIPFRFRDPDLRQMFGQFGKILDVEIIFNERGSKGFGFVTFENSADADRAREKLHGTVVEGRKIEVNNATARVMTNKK
Strand | RBNS enrichment (R)
UGCUGCCUGGAGAACUGAGAAUAGACCUCUGUUGUUGACCCUUCCUCAGGCUGGAGCCUGGGUGUUGGAAGGGAGAGACUGUCACCCAGUUGUCAUGUCUUUUGGUUGUG | 0.718
UGAGGCGACAGUGAGCUAGGAUCGCACCACUGCACUCCAGCCUGAGUGACAGAGCAAGACCCUGUCUCUAAAAAAAAUUAAAAUGAAAGACCAGGUGCUGGGAUUAAGGA | 9.14
CACUCAGCAAACAUUUCCUGAGUACCUACUAUAUACCAAACUUAUAGAAAGACUAACUAGGGAACAACAAGGCCACAAACAAGCCACCUGGCACAGCAGCCUUCUACUCA | 0.169
UGUUUUUUCCUCUCUACUACCAAGCUUUAAGACAUUAAAAGAAGUCUAGUGUAUUUGAAUAUUUUAGAGAAAGCUUUAUCAUUUUUUAAGAUGCCAAGAUGCUGCCUACG | 0.402
UAUAGUACUUGAAAUUCUUACCAGAAAAUUACUUUGGAGUUUUGAAGCCUUUAUUAAUACUACUUUUAAAGAAGCAGUUGUUUUAUUGUCAAUGUUUUUUUUCCCCCAAG | 0.599
ACUCUGCUAAUAGACACAAGCUAAGGAAAGCAGCACCGUAGCCUGACAUAGUGCAGACCUUGUAAAGCAAGAGUAGCUGGCAUCUCUUAAGUCACUGAUGCCAUUUCAUA | 0.761
CACCGAAAGAGCUCUUCUUUUCCCCUUAGAUGUACAGUAGGAGAGGUUGUUAAGUGUUCUCUCUUUGCUUCCGUUUACUGAGUUUUCAAAGGUUUGUGGGAAAAUGUAGG | 1
GAGCAUGGUGAGGAGUAGCCAGGGUGAAUUUCACAACAUUUGUACUAGAUUUAGAUGCUCAAGAAUAAAUGUACUGAGAAGAGUUAAUAAUUGUUUAUUCCCAAAUUGAA | 5.83
UUACUUCAAUGGCAGCAGCGAUCAAGAAAGUUCUCCAACCUUGAACAGCCAAAUGGAUUGACUACAGUGGGGGCAGCUAAUUAAUGAUUAAUCAGAAGCAUUUGAUAAUA | 0.641
CCCCAAGCAGUGGUGCCACUCUUCCAAGCCUCUUGGUGCACAGUAAACCUAUUGCUUGAAGCUUUGAACAGCUGAGAAGUGGUCUGGAGAGGCAGAAGCUGAAGGUUCUA | 0.299
GGCCCUCCUCCCCGGCCCUCCCUGGCCCGGCCACUCCGAAGGCAGGGAGGAGGACUUGGCAACUGGCUUUUCUCCUGUGGAGUCGUCACACGCCAUCCAGCAGCGCUAAG | 0.198
GACCCACGCUCUGCCGAGAUACUGGACGGGAGGAAGGAUUUUUCCUAGACUGCGGAUUGGCGUGACAAAGCAAUGGCUGUGUCAGCUGGGCCUUCAUCCAGGAACAGACC | 0.337

Set 2
Target: PABPC1L2, full length, GST fusion (mouse, UniProt A0ABA7IW68)
Method: RNAcompete
Molecule type: RNA
Sample: in vitro
Concentration: 20 nM
Notes: 7-mer, probes averaged, single round
Relative to: mean of 7-mers
Direction: higher = stronger binding
Construct (chain): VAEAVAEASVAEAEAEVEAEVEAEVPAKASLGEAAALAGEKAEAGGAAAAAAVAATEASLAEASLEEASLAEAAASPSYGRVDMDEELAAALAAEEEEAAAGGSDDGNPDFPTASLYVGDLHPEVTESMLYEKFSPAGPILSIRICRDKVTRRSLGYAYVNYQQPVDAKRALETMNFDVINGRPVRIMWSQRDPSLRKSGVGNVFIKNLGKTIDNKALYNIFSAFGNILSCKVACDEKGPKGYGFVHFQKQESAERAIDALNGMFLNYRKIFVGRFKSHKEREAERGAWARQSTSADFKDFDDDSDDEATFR
Strand | 7-mer Z-score
CAGGCAC | 0.2
ACAGUAG | 0.153
CCUGCUC | -0.315
UGGUAGG | -0.0301
CUCGAUC | -0.329
UCUUAAA | 0.599
GAACGCU | -0.0881
UCCCAGG | -0.287
CGACUCG | -0.258
AGAGGCC | -0.0627
AACUGAA | 0.234
ACUUGUC | -0.364
AAGUGAU | -0.012
AGGAGCA | 0.162
UUCGAGC | -0.258
CUUAUGU | -0.367
UGACUUU | -0.3
GGUAACC | -0.0573

Set 3
Target: Ras GTPase-activating protein-binding protein 1, RRM domain (G3BP1, Homo sapiens, UniProt Q13283)
UniProt Q13283, sequence (whole entry, looked up): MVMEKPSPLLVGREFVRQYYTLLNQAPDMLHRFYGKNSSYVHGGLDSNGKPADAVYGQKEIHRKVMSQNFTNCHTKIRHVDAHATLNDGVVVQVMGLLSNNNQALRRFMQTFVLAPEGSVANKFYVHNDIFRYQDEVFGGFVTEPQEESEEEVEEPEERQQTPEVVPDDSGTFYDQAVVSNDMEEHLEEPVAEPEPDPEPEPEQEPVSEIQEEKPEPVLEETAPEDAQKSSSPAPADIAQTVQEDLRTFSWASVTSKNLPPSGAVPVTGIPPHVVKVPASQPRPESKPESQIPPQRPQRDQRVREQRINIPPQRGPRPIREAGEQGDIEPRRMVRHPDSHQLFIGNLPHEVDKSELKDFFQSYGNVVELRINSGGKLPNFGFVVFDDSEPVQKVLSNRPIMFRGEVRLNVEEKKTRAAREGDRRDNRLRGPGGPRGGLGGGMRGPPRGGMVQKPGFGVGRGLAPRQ
Method: RNA Bind-n-Seq
Molecule type: RNA
Sample: in vitro
Concentration: 1 µM
Notes: whole 134-nt RNA, ends assumed
Added: 150 mM KCl
Relative to: input library
Direction: higher = stronger binding
Shared flanks, not repeated: GGGAGUUCUACAGUCCGACGAUC … UGGAAUUCUCGGGUGUCAAGG
Strand | log2 enrichment
CCUGUGCUACACAUCGUAUGUACCGAAUCGGGGUUUUUUGGGUUUUUUGGGUUUUUUGGGGAAAGUAUUAUGUUACGCCGUUCGGAUCUG | -0.216
UCAAGUCCUGUGCUACACAUCGUAUGUACCGAAUCGGGGAAGGGAAGGGAAGGGAAAGUAUUAUGUUACGCCGUUCGGAUCUGCACUUCC | 1.07
CUCAAGUCCUGUGCUACACAUCGUAUGUACCGAAUCGGUUUUUGGUGGAAAGGAAAGUAUUAUGUUACGCCGUUCGGAUCUGCACUUCCA | -0.222
CACCGACAACACGCACCCACACAGACACAGAGGGAAGGGGUUGGGAUGGGGACAGGGUGCACAGCAGGGCGGGGUAGGACCCCAGCCCCU | -0.0481
UCUUCCGUGACAUUUCAUUUGGGGAACAACUUUUCUCUUUACAGGCCCGAGUGACUAAGGGAUGUACCAUUGUUAAGCCUUUCAACCUGU | 0.0272
AAGUCCUGUGCUACACAUCGUAUGUACCGAAUCGGAAAAGGGGAAAAGGGAAAAGGGAAAGUAUUAUGUUACGCCGUUCGGAUCUGCACU | 0.152
UCAAGUCCUGUGCUACACAUCGUAUGUACCGAAUCGGUUUUGGUUUUGGUUUUGGAAAGUAUUAUGUUACGCCGUUCGGAUCUGCACUUC | -0.249
AAGUCCUGUGCUACACAUCGUAUGUACCGAAUCGGGAGGGAAAGGGUUUUUUUGGGAAAGUAUUAUGUUACGCCGUUCGGAUCUGCACUU | 0.52
UGAAGACUAUGAGACUGCUCUAUCAGGAAAGGAAGCCCUUUCGGCUGCGCUGCGCUCACAAAACCUCACCAAGAGUACAGAGAACCACAG | 0.0398
UAACUUUAGAGGAGGAUCUGAUGGGUAUGGCAGUGGACGUGGAUUUGGGGAUGGCUAUAAUGGGUAUGGAGGAGGACCUGGAGGUGGCAA | -0.103
GCAGGAAGUAUAAACAAAUGGAAAUGCUUCGGAUAGUGGCAGGGGUGGGGGUUGCUAAGGAAAGGGUGGGAUGGGAGUGGGUAAAGAGUU | 0.845
CUGUGCUACACAUCGUAUGUACCGAAUCGGGGUUUUUUUGGGGUUUUUUUGGUUUUUUUGGAAAGUAUUAUGUUACGCCGUUCGGAUCUG | -0.178
CACAGACAACACGCACCCAGACAGACACAGAGGGAAGGGGUUGGGAUGGGGACAGGGUGCACAGCAGGGCGGGGUAGGACCCCAGCCCCU | -0.0691
CUCAAGUCCUGUGCUACACAUCGUAUGUACCGAAUCGGCCCGGCCCGGCCCGGAAAGUAUUAUGUUACGCCGUUCGGAUCUGCACUUCCA | -1.18

Set 4
Target: Centromere-binding protein 1, full length, N-terminal tag (CBF1, Saccharomyces cerevisiae, UniProt P17106, residues 1-351)
UniProt P17106, sequence (whole entry, looked up): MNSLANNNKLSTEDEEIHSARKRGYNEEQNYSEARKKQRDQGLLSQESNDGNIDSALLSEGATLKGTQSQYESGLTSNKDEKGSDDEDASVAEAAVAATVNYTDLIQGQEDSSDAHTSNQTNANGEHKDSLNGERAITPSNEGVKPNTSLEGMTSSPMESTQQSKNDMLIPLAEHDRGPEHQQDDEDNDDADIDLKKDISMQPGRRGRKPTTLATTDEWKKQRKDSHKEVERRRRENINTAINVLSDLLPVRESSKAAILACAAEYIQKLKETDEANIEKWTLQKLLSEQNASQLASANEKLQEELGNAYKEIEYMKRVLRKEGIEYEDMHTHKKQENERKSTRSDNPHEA
Method: protein-binding microarray
Molecule type: double-stranded DNA, one strand shown
Sample: in vitro
Concentration: 0.8 µM
Notes: whole 60-bp probe, no competitor
Direction: higher = stronger binding
Shared flanks, not repeated: … GTCTTGATTCGCTTGACGCTGCTG
Strand | fluorescence intensity
GAATTGTGATACAGCCACATGAACAGATTCCCATAG | 558 a.u.
GAATTCCTAGGGTATCATGTGTCTGGCCCAAAATAG | 811 a.u.
CCTAACTACTATAATATCGTGACATAGCTTCGTACA | 814 a.u.
CTACCAAGACTGGATCACCTTTACATAGCACTTTTC | 508 a.u.
CTAACGAGTACCGCACACGTAGGCCAAAGCACTTTC | 520 a.u.
GAACGTTTGTTGGAGCACGTGGGAAATCCCCAATAG | 5140 a.u.
CTAAATACTGAAGTGCAGCTGACGATCCAGTCATTC | 557 a.u.
CTAACACTAATCATTCTGATGATGAACTCCCTGTTC | 501 a.u.
CTAACATAACTATAACGTGTGTGAGGGCGAGCATTC | 565 a.u.
CTATTCACACAAGATGCCATCAGCGCTACTGTATTC | 510 a.u.
GAAAAGGTAATAGGGCACGGGAGGCCGTTGTTTTAG | 560 a.u.
CTAGACCGCTCGTGGAAGGTGACGATAATACGATTC | 555 a.u.
TGTACGAAGCTATGACGCATGATTATAGTAGTTAGG | 577 a.u.
TGTACGAAGCTATACCACACCATTATAGTAGTTAGG | 525 a.u.
CTATATAGCTGATAGCACGTTCTTTTTAAGTTGTTC | 625 a.u.
CTAGCGTCTTGATACCACGTCTTCCAGTTATGGTTC | 542 a.u.
GAAAGCAAGTAGAGTCACGTACCCCCCAGTAGATAG | 994 a.u.
CCTAACTACTATATCTTCGTGGGATAGCTTCGTACA | 494 a.u.
GAATTATATGTGCACCACGCATTTATCTAACCATAG | 532 a.u.
GAATTTTAAACCCACGTGTGAACGCCAAGATTGTAG | 3740 a.u.
GAACTGCACTTCTGGCACATGGTCTAGCCTTTCTAG | 847 a.u.
GAAGGTTAAGAAAAACACCTGACAAATAATAATTAG | 1750 a.u.
GAATCCTTGTTTGCTGGTGTCACTTGGCTCGACTAG | 541 a.u.
GAACCGAATCTATGTCACGAAGTACATATATAATAG | 674 a.u.
GAATGTAGATGTCGCCGCGTGATTTTATCGTTGTAG | 863 a.u.

Set 5
Target: Histone acetyltransferase KAT6A, winged helix 1, GST fusion (KAT6A, Homo sapiens, UniProt Q92794, residues 1-85)
Method: protein binding microarray
Molecule type: double-stranded DNA, one strand shown
Sample: in vitro
Concentration: not given
Notes: 8-mer, flanks averaged, mean of 2 arrays, mostly near background
Relative to: not given
Direction: higher = stronger binding
Construct (chain): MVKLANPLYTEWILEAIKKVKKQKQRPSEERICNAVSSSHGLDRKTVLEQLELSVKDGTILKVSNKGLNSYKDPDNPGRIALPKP
Strand | E-score
CCGTCGAA | 0.162
AATGGCTC | -0.176
ACACGTCG | 0.0564
ATCTCATC | -0.137
GCGCACAC | 0.272
AAATATGG | -0.0797
AATGACGT | -0.0749
TCACATGA | -0.175
AAGACTAT | -0.134
CTGTAATA | 0.0608
CAGACACC | -0.166
ATACATAC | -0.0473
AGGGTGAC | -0.0783
CGCCTCGC | 0.189
AAAGCAGT | -0.15
ACCTTCAG | -0.122
CGCATTAG | 0.113
ACAAATGT | -0.31
AAATAGGG | -0.0951
ACTTACTA | -0.136
CGTTCCGA | 0.0279
AACGTCCC | -0.0722
ATCTTAAG | -0.104
AACCTCGT | 0.00374
CTTCCGAA | 0.0101
